Measured values collected from several papers.
Lines come from different studies, so protocols differ. ± gives the spread as reported.
UCHL1: Ubiquitin carboxyl-terminal hydrolase isozyme L1 (UCHL1, Homo sapiens, UniProt P09936)
Chain of UniProt P09936 (whole entry, looked up): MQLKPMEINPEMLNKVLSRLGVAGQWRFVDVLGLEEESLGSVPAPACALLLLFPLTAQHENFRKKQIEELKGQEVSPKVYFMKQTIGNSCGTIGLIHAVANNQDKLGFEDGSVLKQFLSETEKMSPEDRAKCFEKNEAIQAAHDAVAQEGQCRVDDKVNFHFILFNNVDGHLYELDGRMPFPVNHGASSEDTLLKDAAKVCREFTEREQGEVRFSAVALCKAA

| SMILES | target or system | assay | test system | setting | how to read | quantity | result |
| --- | --- | --- | --- | --- | --- | --- | --- |
| O=C(c1ccc(Nc2nccc(-c3cc4ccccc4s3)n2)cc1)N1CCC(N2CCCC2)CC1 | Toxoplasma gondii | parasite growth | HFF, bradyzoite, alkaline-induced | – | – | EC50 | 3.44 µM |
| COc1ccc(-c2c(C=O)c3cc(C#N)c(C#N)cc3n2OC)cc1 | UCHL1 | covalent, intact protein LC-MS | – | 12.5 µM | – | labelling | 17.2% |
| Cc1ccc(N(c2ccc(NC(=O)CN(C)c3ccccc3N3CCCC3=O)cc2)C(C)C)cc1 | Plasmodium falciparum | schizont egress, nanoluciferase release | 3D7 NanoLuc | 4 h | – | EC50 | > 10 µM |
| OCC1=C(F)[C@@H](n2nnc3c(NO)ncnc32)[C@H](O)[C@@H]1O | dengue virus type 2 | viral replication, luciferase reporter | BHK-D2-Rluc | 48 h | – | EC50 | > 100 µM |
| O=c1[nH]cc(F)c(=O)[nH]1 | Toxoplasma gondii | parasite growth | HFF, bradyzoite, alkaline-induced | – | – | EC50 | 3.15 µM |
| COc1ccc(Nc2cnnc3cc(-c4cnc(N5CCCN(C)CC5)nc4)ccc23)cc1Cl | Leishmania donovani | – | B10R cells | – | – | EC50 | 9.6 µM |
| CN(C)C(=O)c1csc(C(=O)CCl)c1 | UCHL1 | covalent, intact protein LC-MS | – | 12.5 µM | – | labelling | 16.3% |
| C[n+]1cc2c3c(ccc2c2ccc4cc5c(cc4c21)OCO5)OCO3 | Toxoplasma gondii | parasite growth | HFF, bradyzoite, alkaline-induced | – | – | EC50 | 1.45 µM |
| Cc1cc(OC(C)C)ccc1C(=O)C(C)(C)NC(=O)c1sccc1C | Parastagonospora nodorum | mycelial growth | PSA medium | 20 °C, suspension concentrate 400 g/L | – | EC50 | 0.47 µg/mL |
| CN1CCN(c2ncc(-c3ccc4c(Nc5ncccn5)cnnc4c3)cn2)CC1 | Leishmania donovani | – | B10R cells | – | – | EC50 | 8.9 µM |
| CCCC(=O)OCSc1ccccc1C(=O)NCCNC(=O)Cn1ccc(=O)c2cc3c(cc21)OCO3 | HIV-1 | virus-induced cytopathic effect, inhibitor, XTT | CEM-SS, RF | 6 days | – | EC50 | 18.5 ± 4.99 µM |
| NC(=O)c1nnn([C@@H]2C(F)=C(CO)[C@@H](O)[C@H]2O)c1N | dengue virus type 2 | viral replication, luciferase reporter | BHK-D2-Rluc | 48 h | – | EC50 | > 100 µM |
| Cc1cccc(CNC(=O)c2cn(CCNC(=O)c3ccccc3Sc3c([N+](=O)[O-])ncn3C)c3cc4c(cc3c2=O)OC(F)(F)O4)n1 | HIV-1 | viral cytopathic effect, XTT | CEM-SS, RF | with: glutathione 2 mM | – | EC50 | 8.2 ± 2.62 µM |
| S=C(S)N1CCCC1 | Toxoplasma gondii | parasite growth, luciferase reporter | HFF, tachyzoite | 72 h | – | EC50 | 4.48 µM |
| CCCC(=O)OCSc1ccccc1C(=O)NCCn1cc(C(=O)NCc2ncccn2)c(=O)c2cc3c(cc21)OCO3 | HIV-1 | virus-induced cytopathic effect, inhibitor, XTT | CEM-SS, RF | 6 days | – | EC50 | 1.85 ± 0.11 µM |
| Cc1ccc(Nc2cnnc3ccc(-c4ccc(N5CCCN(C)CC5)cc4)cc23)cn1 | Leishmania donovani | – | B10R cells | – | – | EC50 | 4.9 µM |
| CCCC(=O)OCSc1ccccc1C(=O)NCCn1cc(C(=O)NCc2cccc(C)n2)c(=O)c2cc3c(cc21)OCO3 | HIV-1 | viral replication | human PBMC, 92RW009 | – | – | EC50 | 1.28 ± 0.29 µM |

| SMILES | target or system | assay | test system | setting | how to read | quantity | result |
| --- | --- | --- | --- | --- | --- | --- | --- |
| CN1CCN(c2ncc(-c3ccc4nncc(Nc5cnccn5)c4c3)cn2)CC1 | Leishmania donovani | – | B10R cells | – | – | EC50 | > 10 µM |
| CCCC(=O)OCSc1ccccc1C(=O)NCCC(=O)N1CCN(C(=O)Cn2ccc(=O)c3cc4c(cc32)OCO4)CC1 | HIV-1 | virus-induced cytopathic effect, inhibitor, XTT | CEM-SS, RF | 6 days | – | EC50 | > 100 µM |
| COc1ccc(Nc2cnnc3ccc(-c4ccc(N5CCN(C)CC5)cc4)cc23)cc1Cl | Leishmania donovani | – | B10R cells | – | – | EC50 | 2.3 µM |
| CC(=O)[C@]1(O)Cc2c(O)c3c(c(O)c2[C@@H](O[C@H]2C[C@H](N)[C@H](O)[C@H](C)O2)C1)C(=O)c1ccccc1C3=O | Toxoplasma gondii | parasite growth | HFF, bradyzoite, alkaline-induced | – | – | EC50 | 1.6 µM |
| Cc1cn([C@H]2C[C@H](N=[N+]=[N-])[C@@H](CO)O2)c(=O)[nH]c1=O | HIV-1 | viral cytopathic effect, XTT | CEM-SS, RF | with: glutathione 1 mM | – | EC50 | 0.008 ± 0.001 µM |
| O=[N+]([O-])c1ccc2c(c1)S(=O)(=O)C=C2 | Toxoplasma gondii | parasite growth | HFF, bradyzoite, glutamine-induced | – | – | EC50 | 1.48 µM |
| Nc1ncnc2c1nnn2[C@@H]1C(F)=C(CO)[C@@H](O)[C@H]1O | dengue virus type 2 | viral replication, luciferase reporter | BHK-D2-Rluc | 48 h | – | EC50 | 37.4 µM |
| Cc1ccc(Nc2cnnc3cc(-c4ccc(N5CCN(C)CC5)cc4)ccc23)cn1 | Leishmania donovani | – | B10R cells | – | – | EC50 | 0.35 µM |
| CCCC(=O)OCSc1ccccc1C(=O)NCCn1cc(C(=O)NCc2cccc(C)n2)c(=O)c2cc3c(cc21)OC(F)(F)O3 | HIV-1 | viral replication | human PBMC, BCF01 (CCR5-tropic) | – | – | EC50 | 7.79 ± 1.64 µM |
| C/C(=N\NC(=O)c1ccc(Cl)cc1)c1ccccn1 | Trypanosoma cruzi | reporter translation, Renilla luciferase mRNA translation | cell-free extract | 40 µM | reference: DMSO | inhibition | -7.6% |
| CCCC(=O)OCSc1ccccc1C(=O)NCCOc1ccnc2ccc([N+](=O)[O-])cc12 | HIV-1 | virus-induced cytopathic effect, inhibitor, XTT | CEM-SS, RF | 6 days | – | EC50 | > 14.9 µM |
| Cc1ccc(S(=O)(=O)/C=C/C#N)cc1 | Toxoplasma gondii | parasite growth | HFF, bradyzoite, glutamine-induced | – | – | EC50 | 5.96 µM |
| CN1CCN(S(=O)(=O)c2ccc(-c3ccc4nncc(Nc5ncc(Cl)cn5)c4c3)cc2)CC1 | Leishmania donovani | – | B10R cells | – | – | EC50 | 0.07 µM |
| CCCCCCNc1nc(NC2CCN(C)CC2)c2cc(OC)c(OC)cc2n1 | Toxoplasma gondii | parasite growth | HFF, bradyzoite, glutamine-induced | – | – | EC50 | 2.48 µM |
| CN1CCN(c2ccc(-c3ccc4c(Nc5ncccn5)cnnc4c3)cc2)CC1 | Leishmania donovani | – | B10R cells | – | – | EC50 | 2 µM |
| COCC(=O)N1CCCC(C(=O)NCc2nc(-c3ccccc3)cs2)C1 (racemic) | Plasmodium falciparum | intermittent drug pressure cycling | Dd2_B2 bulk culture after selection | flask 3, pulse 1 | – | EC50 | 0.13 µM |

Some of these lines once more:
| SMILES | target or system | assay | test system | setting | how to read | quantity | result |
| --- | --- | --- | --- | --- | --- | --- | --- |
| CCCC(=O)OCSc1ccccc1C(=O)NCCn1cc(C(=O)NCc2cccc(C)n2)c(=O)c2cc3c(cc21)OC(F)(F)O3 | HIV-1 | viral replication | human PBMC, BCF01 (CCR5-tropic) | – | – | EC50 | 7.79 ± 1.64 µM |
| C/C(=N\NC(=O)c1ccc(Cl)cc1)c1ccccn1 | Trypanosoma cruzi | reporter translation, Renilla luciferase mRNA translation | cell-free extract | 40 µM | reference: DMSO | inhibition | -7.6% |
| CCCC(=O)OCSc1ccccc1C(=O)NCCOc1ccnc2ccc([N+](=O)[O-])cc12 | HIV-1 | virus-induced cytopathic effect, inhibitor, XTT | CEM-SS, RF | 6 days | – | EC50 | > 14.9 µM |
| Cc1ccc(S(=O)(=O)/C=C/C#N)cc1 | Toxoplasma gondii | parasite growth | HFF, bradyzoite, glutamine-induced | – | – | EC50 | 5.96 µM |
| CN1CCN(S(=O)(=O)c2ccc(-c3ccc4nncc(Nc5ncc(Cl)cn5)c4c3)cc2)CC1 | Leishmania donovani | – | B10R cells | – | – | EC50 | 0.07 µM |
